Assay results collected from several papers.
Every numbered part comes from another study and shows a few of its results, in no order.
Chain of UniProt P28223 (whole entry, looked up): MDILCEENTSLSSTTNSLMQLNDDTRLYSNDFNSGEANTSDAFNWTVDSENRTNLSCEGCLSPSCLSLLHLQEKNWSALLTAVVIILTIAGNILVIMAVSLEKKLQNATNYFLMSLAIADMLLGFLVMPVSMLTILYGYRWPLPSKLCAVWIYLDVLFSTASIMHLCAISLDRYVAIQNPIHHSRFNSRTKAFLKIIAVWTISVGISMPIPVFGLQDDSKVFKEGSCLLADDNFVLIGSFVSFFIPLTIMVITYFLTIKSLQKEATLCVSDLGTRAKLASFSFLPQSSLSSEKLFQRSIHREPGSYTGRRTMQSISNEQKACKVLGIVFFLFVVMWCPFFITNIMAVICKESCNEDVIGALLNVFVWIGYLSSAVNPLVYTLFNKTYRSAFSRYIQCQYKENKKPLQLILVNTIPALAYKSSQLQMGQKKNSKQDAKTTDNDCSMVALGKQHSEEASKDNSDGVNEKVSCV
Chain of UniProt P23975 (whole entry, looked up): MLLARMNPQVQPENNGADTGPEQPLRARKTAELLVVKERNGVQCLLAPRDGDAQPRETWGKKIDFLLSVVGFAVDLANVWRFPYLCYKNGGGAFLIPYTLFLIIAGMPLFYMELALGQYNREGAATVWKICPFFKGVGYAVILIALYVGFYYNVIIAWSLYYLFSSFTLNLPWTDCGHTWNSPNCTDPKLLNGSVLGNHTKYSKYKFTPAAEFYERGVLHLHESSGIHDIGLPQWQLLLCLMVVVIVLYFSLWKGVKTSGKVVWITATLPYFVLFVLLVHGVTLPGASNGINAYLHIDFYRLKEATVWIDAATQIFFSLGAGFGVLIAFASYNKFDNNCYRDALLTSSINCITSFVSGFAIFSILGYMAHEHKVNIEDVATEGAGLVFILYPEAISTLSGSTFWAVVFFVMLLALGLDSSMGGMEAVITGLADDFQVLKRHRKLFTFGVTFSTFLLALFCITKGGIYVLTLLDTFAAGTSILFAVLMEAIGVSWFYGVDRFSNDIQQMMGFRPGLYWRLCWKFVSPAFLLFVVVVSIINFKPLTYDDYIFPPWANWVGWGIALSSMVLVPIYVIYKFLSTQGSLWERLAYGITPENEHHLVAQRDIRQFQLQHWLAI
Chain of UniProt Q01959 (whole entry, looked up): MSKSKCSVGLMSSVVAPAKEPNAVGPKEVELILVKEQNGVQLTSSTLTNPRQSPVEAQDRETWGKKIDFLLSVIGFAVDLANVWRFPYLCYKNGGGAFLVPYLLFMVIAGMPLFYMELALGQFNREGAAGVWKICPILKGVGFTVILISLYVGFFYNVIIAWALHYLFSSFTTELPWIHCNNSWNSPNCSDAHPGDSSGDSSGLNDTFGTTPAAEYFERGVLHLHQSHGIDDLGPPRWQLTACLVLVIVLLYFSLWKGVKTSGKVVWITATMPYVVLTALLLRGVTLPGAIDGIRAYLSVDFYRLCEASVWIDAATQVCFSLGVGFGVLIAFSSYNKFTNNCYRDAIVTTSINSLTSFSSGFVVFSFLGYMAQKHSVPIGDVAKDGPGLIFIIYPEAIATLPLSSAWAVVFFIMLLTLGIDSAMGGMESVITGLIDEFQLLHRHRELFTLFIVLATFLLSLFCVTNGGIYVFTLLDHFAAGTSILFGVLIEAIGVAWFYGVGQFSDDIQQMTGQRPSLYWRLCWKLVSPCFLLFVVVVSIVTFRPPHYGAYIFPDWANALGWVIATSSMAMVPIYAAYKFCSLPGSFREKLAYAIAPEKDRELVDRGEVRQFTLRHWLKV

Series 1
Organism: Sarcocystis neurona
Read-out: parasite growth
Concentration: 10 µM
Time: 96 h
Notes: first screen
Reference: untreated
Compound | log2 fold change
CCN(C(C)=O)c1cccc(-c2ccnc3c(C#N)cnn23)c1 | 0.00776
O=C1CN=C(c2ccccc2)c2cc([N+](=O)[O-])ccc2N1 | -0.11
C[C@]12CCC(=O)C=C1CC[C@@H]1[C@@H]2CC[C@@]2(C)[C@H]1CC[C@]2(C)O | -0.27
C=C1C[C@@H]2[C@H](CC[C@]3(C)C(=O)CC[C@@H]23)[C@@]2(C)C=CC(=O)C=C12 | -0.16
c1ccc2c3c([nH]c2c1)CNCC3 | 0.03
CC(C)N(CCC(C(N)=O)(c1ccccc1)c1ccccn1)C(C)C (centres unmarked) | 0.09

Series 2
Target: DNA polymerase theta, helicase domain (POLQ, Homo sapiens, UniProt O75417)
Chain of UniProt O75417 (whole entry, looked up): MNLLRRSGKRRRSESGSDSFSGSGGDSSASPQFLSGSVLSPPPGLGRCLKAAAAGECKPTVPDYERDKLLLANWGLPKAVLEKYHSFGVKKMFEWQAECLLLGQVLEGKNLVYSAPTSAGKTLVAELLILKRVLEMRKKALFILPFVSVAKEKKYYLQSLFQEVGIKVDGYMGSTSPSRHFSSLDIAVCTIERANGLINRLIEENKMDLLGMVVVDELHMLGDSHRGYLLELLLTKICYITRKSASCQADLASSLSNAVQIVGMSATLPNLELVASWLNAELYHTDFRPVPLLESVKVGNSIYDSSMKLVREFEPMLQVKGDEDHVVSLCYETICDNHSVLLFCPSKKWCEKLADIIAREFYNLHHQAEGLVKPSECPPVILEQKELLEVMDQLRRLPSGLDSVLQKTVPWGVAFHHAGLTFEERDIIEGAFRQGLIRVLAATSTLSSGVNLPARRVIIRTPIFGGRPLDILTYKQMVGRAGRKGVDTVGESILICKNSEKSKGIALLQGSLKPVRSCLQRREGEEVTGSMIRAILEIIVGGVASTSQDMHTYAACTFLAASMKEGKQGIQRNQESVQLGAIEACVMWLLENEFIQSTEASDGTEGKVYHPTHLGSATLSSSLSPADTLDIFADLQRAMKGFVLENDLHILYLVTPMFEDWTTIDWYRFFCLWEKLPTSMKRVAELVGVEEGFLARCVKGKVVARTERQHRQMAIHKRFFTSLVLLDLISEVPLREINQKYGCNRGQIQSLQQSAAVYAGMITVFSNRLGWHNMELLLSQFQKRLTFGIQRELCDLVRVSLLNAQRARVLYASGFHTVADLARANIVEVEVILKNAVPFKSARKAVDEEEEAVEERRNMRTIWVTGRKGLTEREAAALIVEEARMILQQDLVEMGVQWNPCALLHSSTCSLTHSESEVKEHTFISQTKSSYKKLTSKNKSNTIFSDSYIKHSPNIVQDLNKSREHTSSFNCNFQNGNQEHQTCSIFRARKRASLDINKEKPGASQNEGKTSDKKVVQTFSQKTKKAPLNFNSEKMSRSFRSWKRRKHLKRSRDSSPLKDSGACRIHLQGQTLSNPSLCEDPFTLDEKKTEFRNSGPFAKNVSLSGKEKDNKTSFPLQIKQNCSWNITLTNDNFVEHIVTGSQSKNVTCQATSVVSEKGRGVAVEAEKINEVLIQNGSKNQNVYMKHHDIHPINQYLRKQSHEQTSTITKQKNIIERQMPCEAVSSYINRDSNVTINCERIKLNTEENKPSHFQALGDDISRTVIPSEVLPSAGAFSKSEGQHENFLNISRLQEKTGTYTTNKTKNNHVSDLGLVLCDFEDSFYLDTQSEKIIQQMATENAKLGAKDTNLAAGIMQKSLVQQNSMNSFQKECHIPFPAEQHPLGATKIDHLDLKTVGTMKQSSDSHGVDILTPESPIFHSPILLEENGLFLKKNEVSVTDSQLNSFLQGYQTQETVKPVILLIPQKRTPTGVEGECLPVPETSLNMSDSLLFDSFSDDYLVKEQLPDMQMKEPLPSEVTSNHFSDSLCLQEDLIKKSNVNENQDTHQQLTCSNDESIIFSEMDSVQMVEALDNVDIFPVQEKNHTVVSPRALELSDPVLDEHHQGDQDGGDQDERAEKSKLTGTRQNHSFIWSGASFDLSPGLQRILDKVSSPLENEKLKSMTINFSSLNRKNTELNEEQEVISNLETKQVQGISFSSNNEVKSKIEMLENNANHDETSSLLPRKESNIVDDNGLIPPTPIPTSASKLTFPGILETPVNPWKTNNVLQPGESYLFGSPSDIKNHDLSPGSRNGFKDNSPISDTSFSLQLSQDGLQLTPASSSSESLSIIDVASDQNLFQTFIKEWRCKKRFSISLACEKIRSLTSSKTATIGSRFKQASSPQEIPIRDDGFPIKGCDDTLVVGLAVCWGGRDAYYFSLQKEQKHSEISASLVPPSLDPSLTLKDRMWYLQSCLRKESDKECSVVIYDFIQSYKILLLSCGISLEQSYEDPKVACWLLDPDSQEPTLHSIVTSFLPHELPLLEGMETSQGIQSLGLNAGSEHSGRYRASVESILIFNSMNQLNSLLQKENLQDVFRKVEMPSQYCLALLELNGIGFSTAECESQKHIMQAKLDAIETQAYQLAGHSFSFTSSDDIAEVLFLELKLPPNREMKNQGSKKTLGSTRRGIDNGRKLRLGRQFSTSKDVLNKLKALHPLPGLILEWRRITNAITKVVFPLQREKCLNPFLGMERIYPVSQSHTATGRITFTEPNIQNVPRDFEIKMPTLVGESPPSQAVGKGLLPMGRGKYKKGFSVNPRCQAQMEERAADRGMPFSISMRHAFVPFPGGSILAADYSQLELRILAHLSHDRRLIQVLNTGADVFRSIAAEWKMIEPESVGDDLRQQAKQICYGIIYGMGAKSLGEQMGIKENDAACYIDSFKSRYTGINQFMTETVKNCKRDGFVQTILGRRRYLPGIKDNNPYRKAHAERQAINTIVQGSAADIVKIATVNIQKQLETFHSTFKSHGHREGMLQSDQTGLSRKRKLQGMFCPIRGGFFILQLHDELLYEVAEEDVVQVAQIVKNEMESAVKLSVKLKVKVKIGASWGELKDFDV
Action: inhibitor
Concentration: concentration not given
Notes: absolute value
With: with minus without ssDNA
Structure (SMILES) | difference in remaining activity [%]
CN(N=O)c1ccc(O)c(O)c1 | 56.8
COc1cc(C(c2c(O)c3ccccc3oc2=O)c2c(C)n(C)n(-c3ccccc3)c2=O)ccc1OCC(=O)O (centres unmarked) | 40.5
CCN(CC)C(=O)c1ccc2c(c1)N(Cc1ccc(C(F)(F)F)cc1)C(=O)c1ccccc1S2 | 23.1
CSc1ccc(C(c2c(O)c3ccccc3oc2=O)c2c(C)n(C)n(-c3ccccc3)c2=O)cc1 (centres unmarked) | 35.5

Series 3
Target: Calcium/calmodulin-dependent protein kinase type II subunit alpha (CAMK2A, Homo sapiens, UniProt Q9UQM7)
Chain of UniProt Q9UQM7 (whole entry, looked up): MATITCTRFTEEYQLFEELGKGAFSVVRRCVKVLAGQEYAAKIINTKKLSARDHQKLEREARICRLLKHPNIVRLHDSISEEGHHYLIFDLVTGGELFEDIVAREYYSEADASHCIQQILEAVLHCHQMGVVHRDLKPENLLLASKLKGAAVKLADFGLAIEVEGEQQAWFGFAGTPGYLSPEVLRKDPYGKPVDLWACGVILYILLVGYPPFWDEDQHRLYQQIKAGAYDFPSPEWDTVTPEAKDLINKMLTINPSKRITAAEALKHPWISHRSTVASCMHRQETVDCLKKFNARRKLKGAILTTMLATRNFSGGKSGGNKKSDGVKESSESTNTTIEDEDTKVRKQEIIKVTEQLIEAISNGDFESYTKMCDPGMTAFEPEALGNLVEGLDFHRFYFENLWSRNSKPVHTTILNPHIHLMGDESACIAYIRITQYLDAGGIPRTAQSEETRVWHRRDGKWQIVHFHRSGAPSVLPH
Read-out: enzyme activity
Action: inhibitor
Concentration: 10 µM
Structure (SMILES) | inhibition [%]
CCN1C[C@]2(COC)CC[C@H](O)[C@]34C1[C@@](O)([C@@H](OC)[C@H]23)[C@@]1(O)C[C@H](OC)[C@H]2C[C@@H]4[C@@H]1[C@H]2OC | 17
COC(=O)[C@@]12OC[C@]34[C@H]([C@@H](O)[C@@H]1O)[C@@]1(C)CC(=O)C(O)=C(C)[C@@H]1C[C@H]3OC(=O)[C@H](OC(=O)/C=C(\C)C(C)(C)OC(C)=O)[C@@H]24 | -15
C[C@]1(C(=O)O)CCC[C@]2(C)c3cc(O)ccc3CC[C@@H]12 | 43

Other studies, line by line
Compound | target | test | setting | measurement | value
COc1cc(N[C@@H]2CCCC[C@]2(O)C(F)(F)F)ccc1F | SLC6A2 (Homo sapiens, UniProt P23975) | ligand displacement | 10 µM | inhibition | -20.4%
O=C(NCc1ncc(C(F)(F)F)cc1Cl)c1ccc2c(c1)C1(CCS(=O)(=O)CC1)[C@@H](C1CC1)N2S(=O)(=O)c1ccc(F)cc1 | SRPK1 (Homo sapiens, UniProt Q96SB4) | cell-free assay, competition with immobilised ligand | 1 µM | remaining binding | 96%
CN([C@@H]1CCc2c(CC(=O)O)c3ccccc3n2C1)S(=O)(=O)c1ccc(F)cc1 | SLC6A3 (Homo sapiens, UniProt Q01959) | ligand displacement | 10 µM | inhibition | 77.1%
COc1cc(-c2cn(C3CCc4ccccc4N(CC(F)(F)F)C3=O)nn2)ccc1-n1ccc(C)n1 (centres unmarked) | HTR2A (Homo sapiens, UniProt P28223) | binding, radioligand binding | 10 µM | inhibition | 5.83%
